# Assay results pooled from the literature.
# Numbered parts are unrelated; each lists some results of a single study.

# Set 1
# Target: Centromere-binding protein 1, full length, His-tagged (CBF1, Saccharomyces cerevisiae, UniProt P17106, residues 1-351)
# Chain of UniProt P17106 (whole entry, looked up): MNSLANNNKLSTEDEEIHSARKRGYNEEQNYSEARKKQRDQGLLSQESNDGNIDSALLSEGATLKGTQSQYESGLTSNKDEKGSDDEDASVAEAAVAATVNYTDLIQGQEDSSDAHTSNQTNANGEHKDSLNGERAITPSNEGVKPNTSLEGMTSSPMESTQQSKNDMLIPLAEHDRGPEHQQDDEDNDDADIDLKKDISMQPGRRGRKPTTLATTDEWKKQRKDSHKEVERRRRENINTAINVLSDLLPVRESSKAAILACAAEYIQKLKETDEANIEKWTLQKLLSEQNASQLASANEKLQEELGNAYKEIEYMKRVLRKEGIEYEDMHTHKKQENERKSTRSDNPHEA
# Method: competition protein-binding microarray
# Form: double-stranded DNA, one strand shown
# Matrix: in vitro
# Tested at: 2 µM
# Setting: whole 60-bp probe, lowest competitor level
# Together with: Pho4 competitor, 0.05 µM
# Reading: higher = stronger binding
# Shared flanks, not repeated: … GTCTTGATTCGCTTGACGCTGCTG
Oligonucleotide,fluorescence intensity
AAATTACTAAGTTTTCACGTGCCATACCCCGTATGA,1560 a.u.
TCACTCATTCTAAAACCCGTGATGGCGCATCATACT,280 a.u.
AACTGGTGGAGGTGGAACGTGTCCAGGCAGTGCAGG,77 a.u.
GCCAGTCTGAGAAAGCACGCTGCTTGTGCTTGTTGG,64.9 a.u.
CCTGCAGGGGTTCCACGCGTGCCAGGTAGCGGTTGA,57.5 a.u.
GCTGCTAACGATCAACACCTGACCGAGATAACAGCA,523 a.u.
ATTTTTTTAAAGAATCGTGTGGTAAACAAGCTTCCA,75.7 a.u.
ACATATTTTAGAAAACACGTGAAGGATACGTAAATA,1760 a.u.
TAAAATGACTGACAGCACGGGACCTTTGAAATTTTG,415 a.u.
CAGGATTTTCCAGTTCGCGTGGTCGTCATAGTTGGG,86.1 a.u.
ATATTATCTTGCGAGCATGTGCACTCAATTTCGGGG,319 a.u.
GTCTTGTCTCATTGTATTGTGGGTGTCCCCACTTCA,93.8 a.u.
AAATTACTAAGTTGGAGGGTGGGTGACGCCGTATGA,64.4 a.u.
CGGTGGAGTATTTCACACGTTATGTCGCTGGTTTGC,85.1 a.u.
AAATTACTAAGTTGTCACCACACTTACCCCGTATGA,83.5 a.u.
CGTCCTAGTGATTGTGAAGTGGGTGCCATGAGGAAG,90.7 a.u.
ATGTCGAAGCCGGTGCAGGTGATAGTGCTGCTTACA,99.8 a.u.
TACTTAATAATCGACCACGTTTCAAATTCAATAATG,228 a.u.
TTGGGAAATATTCCTCACGTGGAATTTTTTGAGCGC,1500 a.u.
AGAAAGTCTTGTAACCAGATGGTGACAAAAACTTGG,93.2 a.u.
CGGGGTTAAGTTTTTCACGTGGCGTGCCGTCGGCAG,487 a.u.
CTTCTGTAAATTTGTCACTTAACTTGACGCGCCCCG,82.8 a.u.
TGACAGAAAACTTAGATCGTGACGGCAAATTAAACG,256 a.u.
TGCGAAAAGATTTCACACGTCAGTAAATCCGCGCAA,72.3 a.u.
TGGGGCAAAAACCATCACGGGACTTATGTTTCGGGA,1060 a.u.

# Set 2
# Target: RING finger protein unkempt homolog, zinc fingers 1-6, GST-SBP tag (UNK, Homo sapiens, UniProt Q9C0B0, residues 30-357)
# Chain of UniProt Q9C0B0 (30-357, looked up): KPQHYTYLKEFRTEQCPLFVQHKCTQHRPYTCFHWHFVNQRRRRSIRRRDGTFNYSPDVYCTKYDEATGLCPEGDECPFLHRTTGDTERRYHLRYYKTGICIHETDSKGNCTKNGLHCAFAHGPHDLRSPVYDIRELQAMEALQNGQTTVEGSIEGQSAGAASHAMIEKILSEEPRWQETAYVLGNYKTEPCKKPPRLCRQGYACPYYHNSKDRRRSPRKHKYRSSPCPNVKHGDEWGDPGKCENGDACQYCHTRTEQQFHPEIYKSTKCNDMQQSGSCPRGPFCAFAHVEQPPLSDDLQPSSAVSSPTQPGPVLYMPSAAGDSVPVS
# Method: RNA Bind-n-Seq
# Form: RNA
# Matrix: in vitro
# Tested at: not given
# Setting: RNA with constant flanks, human-mouse chimeric sites, ends assumed
# Baseline: input RNA pool
# Reading: higher = stronger binding
# Shared flanks, not repeated: GGGAGUUCUACAGUCCGACGAUC … CAACAGAGGAUUGAGCAUCA
Oligonucleotide,bound/input enrichment
UGUAGUUUCUUGAUUUAGUGGCUGGGCCUUUUCUUUCUUUCCUUUAGGAAAAGCCUAAAGAUUAGGUUGUAAGAAAAACAGAAGCCAUGUUUCGAAGGAAGACCUGUCAGGUAUUUCGUC,0.152 ratio
ACUCUUGACUCUUUCCAUCCUCUUCCUUUCCCUCUUGAUAUUCAAGGCCAUGAAUCCCAAAAUAGCUGUCUUAGUGGCUAGCACCCACCCAAACUGAGAAUAAAUCCACCCCAGUGUCUC,1.13 ratio
AUCCAGUACUCGAAUCACAAAGAACUAAAGACAGAUAAUACAUUAAACCAACGUGCGCAGGCAGUUCUUCAAGCUGUGACAGCUGUCCAGACAGCAAAUACACCUCUUAGUGGCACCACA,0.434 ratio
GCUCCUCCCCGCUCUGCAGCCUGGGGACACUGGGCUGGGACCAGAAUCCAGCUUUCUUUUAAUAGUGUCAGUGUAACUGUAUCCCGUUUUUUUCUUUUUUUUUUAAAUAGUGUAUUUUUU,22.9 ratio
GGCUGCUACUAUUCUCCCUGGAGUGGCUGGAGUUCCCCCGGAACCUGGGCCAGACUAAUUUUAGAAAAUGCCAAGUAGGAAGUUUGUUGAGGGUGAAGUGGUCAGAGGCCGAUGGCCUGG,5.97 ratio
AGAAAGCAAAACUUGGAACGAUUUAAGAAAGGAGACGUAAGAUUCUUGAUUUGCACAGAUGUAGCUGCUAGAGGAAUUGAUAUCCAUGGCGUUCCUUAUGUGAUCAACGUCACCCUGCCU,0.209 ratio
UUGGAAGGACCAGAGCCCAGUCAGCUCAAACCACUAGUCAUACAGGCUAUGCCCACCCUAAUAGAACUAAUGAAAGACCCCAGUGUAGUUGUUCGAGACACAACAGCGUGGACUGUGGGC,0.7 ratio
CAGCCUCAGAGCCCAGACUUCCUGGAUAUCACCAACCCCAAAGCCGUAUUAGAAAAUGCAUUGAGAAACUUCGCCUGUCUGACGACUGGAGAUGUGAUUGCUAUCAACUACAAUGAGAAG,0.521 ratio
UUUCUACUGCAGCAAACGAUGCUAAGAAUUAAGGAUCCUAAGAAGUCACUGGAUUUUUAUACGAGGGUUCUUGGAAUGACCCUCCUGCAGAAGCUUGACUUCCCUGCUAUGAAGUUCUCG,0.108 ratio
CAGCCUCAGAGCCCAGACUUCCUGGACAUUACCAACCCUAAAGCGGUAUUAGAAAAUGCAUUGAGAAACUUCGCCUGUCUGACCACCGGAGAUGUGAUUGCUAUCAACUACAAUGAGAAG,0.511 ratio
AAAGAGAAACUAAAGCAACUAAUAGAGGAAGAGGAUUGCAAAGAGAAUUUCAUAGAGAAACUAGGAUUUAUUAGCAAACAUGAGUUAUAUUCCAGAGCGUCUCAGAAACCCCAGCCAAAC,7.33 ratio

# Set 3
# Target: Fragile X messenger ribonucleoprotein 1, C-terminal low-complexity region (Fmr1, Mus musculus, UniProt P35922)
# Method: RNA Bind-n-Seq
# Form: RNA
# Matrix: in vitro
# Tested at: 200 nM
# Setting: whole 134-nt RNA, ends assumed
# Together with: 150 mM LiCl
# Baseline: input library
# Reading: higher = stronger binding
# Library: 7-deaza-guanosine replaces G
# Shared flanks, not repeated: GGGAGUUCUACAGUCCGACGAUC … UGGAAUUCUCGGGUGUCAAGG
Oligonucleotide,log2 enrichment
UGGCCCUGGUGGCAUGCGGGGAGGAAGAGGUGGCCUCAUGGAUCGUGGUGGUCCCGGUGAAAUGUUCAGAGGUGGCCGUGGUGGAGACAG,-0.571
AGUCCUGUGCUACACAUCGUAUGUACCGAAUCGGGAAAAAGGGAAAAAGGGAAAAAGGAAAGUAUUAUGUUACGCCGUUCGGAUCUGCAC,-0.874
UGGGAGGUGGAUUUUGUUUAUUUUUUUAGCUCAUUGCCAGGGGUGGGAAUUUUUUUUUAAUAUGUGUCAUGAAUAAAGUUGUUUUUGAAA,1.12
AGUCCUGUGCUACACAUCGUAUGUACCGAAUCGGUUUUUUUGGUUUUUUUGGAAAGGAAAGUAUUAUGUUACGCCGUUCGGAUCUGCACU,-2.02
UCAAGUCCUGUGCUACACAUCGUAUGUACCGAAUCGGCCGGGGCCGGGGCCGGGAAAGUAUUAUGUUACGCCGUUCGGAUCUGCACUUCC,-0.508
AAGUCCUGUGCUACACAUCGUAUGUACCGAAUCGGGAAAGGGAAAGGGAAAAAGGGAAAGUAUUAUGUUACGCCGUUCGGAUCUGCACUU,-0.181
UGCUAGGACUUGAUGGAUCACUAGUUUUUCUGGUAAGUAAAACUAAUUUUUUUUUUUUUUUUUUGAGACGGAAUCUCACUCUGUCACCCA,1.71
AGUCCUGUGCUACACAUCGUAUGUACCGAAUCGGGGAGGGGUUUUUGGGGUUUGGGGAAAGUAUUAUGUUACGCCGUUCGGAUCUGCACU,-1.22
CCUCAAGUCCUGUGCUACACAUCGUAUGUACCGAAUCGGUUUGGAAAGGUGGAAAGUAUUAUGUUACGCCGUUCGGAUCUGCACUUCCAG,0.0614
CUCAAGUCCUGUGCUACACAUCGUAUGUACCGAAUCGGGGAGGGGAGGAGGGGAAAGUAUUAUGUUACGCCGUUCGGAUCUGCACUUCCA,-0.693
ACCAUGCAGGUGGGCAAAAUUGGGAAGUGGGGCAAGGGGGGGAUAGGGAGGGGGGUAACACUUUGGGAACAGGUGGUCCCAGGUCGUUUC,1.47

# Set 4
# Target: RNA binding protein fox-1 homolog 2, RRM domain, GST-SBP tag (RBFOX2, Homo sapiens, UniProt O43251-10, residues 100-194)
# Method: RNA Bind-n-Seq
# Form: RNA
# Matrix: in vitro
# Tested at: 365 nM
# Setting: natural RNA segment, single round, ends assumed
# Baseline: no-protein control
# Reading: higher = stronger binding
# Shared flanks, not repeated: GGGAGUUCUACAGUCCGACGAUC … UGGAAUUCUCGGGUGCCAA
# Construct (chain): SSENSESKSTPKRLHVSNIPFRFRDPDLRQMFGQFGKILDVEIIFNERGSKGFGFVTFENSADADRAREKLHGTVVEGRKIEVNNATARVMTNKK
Oligonucleotide,RBNS enrichment (R)
UAUUGCCCCUGCUGAGGGGCUCCUGCCUAAGGAAGACAUGAUAUCCAGUAGACACAAGCAAGAAGACCACACUUCCCCCCGACACAGGAAAGCUGAGACAUUGUCCCCAA,0.361
AUGUUUCAAUACCUACAAACCUAUUGAAAGAGAACAGUAGGUAAAACAUUUCCUAAAGUUGAAGCAAUAGCUUCGUAGAUUCUUGGUUACUUUAUUUUUUUUAAUGCUUU,0.785
CAGAUUAGGGGCUCCCUGGUUAGAGGGUUGUAAGGUACAGGGUGCUGUCCAGCCUCUGAGUACCAUGUUAUUUCAGCUCCAUGUUGCCCUGCAACAGGAAGCAGGAAGGU,0.255
AGGUCUGUCACUAGGCAGGAAACCAUGUAGGUAAGUGUAGGACCUGCUUUGCUUAGCCACUACUGGAUUUGUUUGGCUGGCCACUGGGUGGCAGCAUAGGUUCUAAUUUU,0.485
UACCUUGUGUUCCGGGAAUAACAUGAUACUAUUCAGAGGAGCCAGAAGUAAAGUUUAUUUCAUGGAUUAUUUAUGAGAGCUAAUUUAAGGAUGACUUUUUUUCUGAUUCA,0.534
ACACAGCUAUCAUAGAAAAGAAACUUGCCUCAUGUAAACUGGAUUGAGAAAUUCUCAGUGAUUCUGCAAUGGAUUUUUUUUUAAUGCAGAAGUAAUGUAUACUCUAGUAU,0.562
AAUGAGCAGUUCGCUCCUCCCUGAUAAGAGUUGUCCCAAAGGGUCGCUUAAGGAAUCUGCCCCACAGCUUCCCCCAUAGAAGGAUUUCAUGAGCAGAUCAGGACACUUAG,0.261
CAUUCAACAAGUAUUUGCUAAACACUAACUUAAGCUAAUGCUAGGGUAGUGACUGAGAUGUAAAAAUAGAUUUUAGAAUUAAAACAAAAUCCAAGUCCUCACACCCCUGU,0.377
AGAGUGUCCUUUUAGGUGGGGCGGCUAUUCUAAAAGUGUCUUUCUAUCACUGUUAAGGGGGGGGGAAAGUGAGGUUCGAGGAUGACGUAGGUAACUCUCCCCUCCCAAGU,0.91
GGCGAAAGGGGCCUUGGCUCUUGCCCUGUGGCAGUGACCUUGGGGUCCGUACUAUGCCCAGGUGUCAGCAGGAAACAAGGCCUUGCUCACAGGAGCACAGGCUGUACCAC,0.243
UUGACAAGUCGGAGAAGGCUCCUGCGUUCAGAAAUGAGCCUGCCUGCAGAGUAUAGGGGCCUGAAAGUUUUAUGAAACGGGUGUAAUAUCUCCUCUGCCUGUGACUUGGG,3.05
CUUGAGUAAAUCCCGUUACCUCUCUGAGCCUCGGUUACCCUGUCUGUAAAAAGGGAGGUGAGAAUACCUACCUCACGGAACUGUUGGGAGGCUCAGAUGAGAUGCUAUAU,0.311

# Some of these lines once more (set 1):
Oligonucleotide,fluorescence intensity
TGGGGCAAAAACCATCACGGGACTTATGTTTCGGGA,1060 a.u.
CGGGGTTAAGTTTTTCACGTGGCGTGCCGTCGGCAG,487 a.u.
AAATTACTAAGTTGGAGGGTGGGTGACGCCGTATGA,64.4 a.u.
CGTCCTAGTGATTGTGAAGTGGGTGCCATGAGGAAG,90.7 a.u.
TGCGAAAAGATTTCACACGTCAGTAAATCCGCGCAA,72.3 a.u.
